{"data": "Experimental data collected from several papers", "note": "Parts stem from different laboratories: compare values within a part only.", "chain of UniProt P49674 (whole entry, looked up)": "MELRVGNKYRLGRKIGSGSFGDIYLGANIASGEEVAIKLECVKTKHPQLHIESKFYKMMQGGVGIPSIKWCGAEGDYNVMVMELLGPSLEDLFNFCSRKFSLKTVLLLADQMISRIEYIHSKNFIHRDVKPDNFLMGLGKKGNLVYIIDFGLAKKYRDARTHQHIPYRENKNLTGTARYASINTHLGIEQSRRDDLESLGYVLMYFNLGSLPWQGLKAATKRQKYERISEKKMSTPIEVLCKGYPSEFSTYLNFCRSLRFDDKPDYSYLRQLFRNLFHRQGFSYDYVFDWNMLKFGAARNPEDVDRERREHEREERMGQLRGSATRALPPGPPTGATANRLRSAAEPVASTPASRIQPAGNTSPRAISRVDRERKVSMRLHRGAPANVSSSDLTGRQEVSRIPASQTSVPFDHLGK"}
{"data": "Series 1", "target": "Sal-like protein 4, full length isoform A (SALL4, Homo sapiens, UniProt Q9UJQ4, residues 1-1053)", "method": "universal PBM", "molecule type": "double-stranded DNA, one strand shown", "medium": "in vitro", "tested at": "600 nM", "notes": "8-mer, flanks averaged, mean of replicates", "reading": "higher = stronger binding", "chain of UniProt Q9UJQ4 (whole entry, looked up)": "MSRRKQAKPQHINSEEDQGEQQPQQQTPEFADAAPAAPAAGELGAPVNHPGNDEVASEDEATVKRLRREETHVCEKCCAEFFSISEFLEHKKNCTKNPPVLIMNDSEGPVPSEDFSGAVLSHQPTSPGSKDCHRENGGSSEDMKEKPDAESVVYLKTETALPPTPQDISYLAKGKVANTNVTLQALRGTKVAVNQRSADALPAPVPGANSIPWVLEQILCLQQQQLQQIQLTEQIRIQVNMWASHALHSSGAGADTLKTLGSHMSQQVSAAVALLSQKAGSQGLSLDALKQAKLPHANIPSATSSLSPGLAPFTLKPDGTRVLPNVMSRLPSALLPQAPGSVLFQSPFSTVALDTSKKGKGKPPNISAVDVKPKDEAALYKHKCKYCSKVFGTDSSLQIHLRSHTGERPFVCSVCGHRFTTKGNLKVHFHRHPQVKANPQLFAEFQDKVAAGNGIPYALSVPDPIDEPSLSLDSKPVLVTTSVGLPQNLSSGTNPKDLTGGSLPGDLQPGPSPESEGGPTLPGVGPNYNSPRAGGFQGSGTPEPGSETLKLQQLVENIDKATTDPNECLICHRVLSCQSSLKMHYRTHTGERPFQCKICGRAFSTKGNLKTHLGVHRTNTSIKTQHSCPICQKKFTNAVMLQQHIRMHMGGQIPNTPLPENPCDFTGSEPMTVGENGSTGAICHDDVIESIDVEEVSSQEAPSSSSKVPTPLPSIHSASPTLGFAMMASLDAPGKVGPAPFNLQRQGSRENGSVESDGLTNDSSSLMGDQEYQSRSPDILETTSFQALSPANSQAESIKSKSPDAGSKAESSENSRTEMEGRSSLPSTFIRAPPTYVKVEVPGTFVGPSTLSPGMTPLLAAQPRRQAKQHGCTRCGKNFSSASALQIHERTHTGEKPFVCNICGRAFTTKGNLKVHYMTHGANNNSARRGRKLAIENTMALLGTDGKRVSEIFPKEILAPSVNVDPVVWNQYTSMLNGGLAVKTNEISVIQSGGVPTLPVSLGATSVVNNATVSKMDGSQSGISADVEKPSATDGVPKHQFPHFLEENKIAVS"}
{"Strand": "GAAGATTC", "E-score": 0.0482}
{"Strand": "ACGTCATG", "E-score": 0.0617}
{"Strand": "AGTCAGAG", "E-score": -0.147}
{"Strand": "ACATTGTA", "E-score": 0.172}
{"Strand": "CTCGGAAC", "E-score": -0.259}
{"Strand": "ACACCGAG", "E-score": -0.0501}
{"Strand": "AAGATGGC", "E-score": 0.0355}
{"Strand": "ATTTTCCA", "E-score": 0.294}
{"data": "Series 2", "target": "Interferon regulatory factor 3, full length, phosphomimetic (IRF3, Homo sapiens, UniProt Q14653, residues 1-427, S386D/S396D/S398D/S402D/T404D/S405D)", "method": "protein-binding microarray", "molecule type": "double-stranded DNA, one strand shown", "medium": "in vitro", "tested at": "2540 nM top", "notes": "60-bp whole probe", "added": "salmon DNA 0.4 mg/ml", "reference": "random background probes", "reading": "higher = stronger binding", "shared flanks, not repeated": "GCCTAGCAC … GTCTTGATTCGCTTGACGCTGCTG", "Target sequence (chain)": "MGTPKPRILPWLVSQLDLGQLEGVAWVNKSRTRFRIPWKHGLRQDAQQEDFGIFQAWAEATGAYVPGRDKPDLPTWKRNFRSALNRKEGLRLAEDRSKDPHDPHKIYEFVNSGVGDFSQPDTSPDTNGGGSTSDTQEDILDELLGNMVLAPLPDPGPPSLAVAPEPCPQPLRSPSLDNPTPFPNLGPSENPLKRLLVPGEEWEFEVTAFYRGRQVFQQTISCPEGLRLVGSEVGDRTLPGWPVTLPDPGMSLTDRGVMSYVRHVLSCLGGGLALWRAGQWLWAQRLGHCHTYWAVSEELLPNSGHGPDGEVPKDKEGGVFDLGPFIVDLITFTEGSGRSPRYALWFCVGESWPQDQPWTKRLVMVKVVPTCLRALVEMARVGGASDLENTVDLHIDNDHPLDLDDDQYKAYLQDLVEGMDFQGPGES"}
{"Strand": "GACGGTTTCCTTTACCTGACGTGCTAG", "fitted relative affinity": "6.69 z-score"}
{"Strand": "TTCGGTTTCCTTATCCTTTAGTGCTAG", "fitted relative affinity": "9.17 z-score"}
{"Strand": "GTAGGACTGCTTCTCCTTTAGTGCTAG", "fitted relative affinity": "-0.103 z-score"}
{"Strand": "GACGATTTCGGGTTTCGCGACGTGCTA", "fitted relative affinity": "2.5 z-score"}
{"Strand": "GACGGTTTCGGGTATCGGCACGTGCTA", "fitted relative affinity": "4.28 z-score"}
{"Strand": "TTAGAATTGGGGTTTCGATTAGTGCTA", "fitted relative affinity": "1.38 z-score"}
{"Strand": "TCTCTGTTCTTTTCAGTCCCGTGCTAG", "fitted relative affinity": "1.94 z-score"}
{"Strand": "GACGGACTGCTTTTCCTTACGTGCTAG", "fitted relative affinity": "0.306 z-score"}
{"data": "Mixed results", "H2BC12L": "H2BC12L (Homo sapiens, UniProt P57053)"}
{"Substance": "H2AX (Homo sapiens, UniProt P16104)", "tested on": "H2BC12L", "assay": "cross-linking MS", "setting": "hits only", "quantity": "interaction screen", "value": "cross-linked"}
{"Substance": "COc1ccc(S(=O)(=O)N(CCO)c2ccccc2CN(C)CC=Cc2ccc(Cl)cc2)cc1", "tested on": "CSNK1E (Homo sapiens, UniProt P49674)", "assay": "enzyme activity, inhibitor", "setting": "0.5 µM", "how to read": "reference: control", "quantity": "remaining activity", "value": "105%"}
{"Substance": "H2AZ1 (Homo sapiens, UniProt P0C0S5)", "tested on": "H2BC12L", "assay": "cross-linking MS", "setting": "hits only", "quantity": "interaction screen", "value": "cross-linked"}
{"note": "Repeated from above (series 2):"}
{"Strand": "GACGGTTTCGGGTATCGGCACGTGCTA", "fitted relative affinity": "4.28 z-score"}
{"Strand": "TTCGGTTTCCTTATCCTTTAGTGCTAG", "fitted relative affinity": "9.17 z-score"}
